Results from different studies.
Lines come from different studies, so protocols differ.
Organism: Escherichia coli

SMILES	assay	test system	conditions	quantity	value
O=C(O)[C@@H]1Cc2c([nH]c3ccccc23)[C@@H](c2ccc(I)cc2F)N1	–	BL21(DE3)	125 µM, 18 h	growth inhibition	0%
CC[C@H](C)[C@H](NC(=O)[C@H](CCCN)NC(=O)[C@H](CC(N)=O)NC(=O)[C@H](Cc1c[nH]c2ccccc12)NC(=O)[C@H](Cc1ccccc1)NC(=O)[C@H](CCCN)NC(=O)[C@H](CCCCNC(=N)N)NC(=O)[C@H](CC(C)C)NC(=O)[C@H](Cc1c[nH]c2ccccc12)NC(=O)[C@H](CCCN)NC(=O)[C@H](CCCCNC(=N)N)NC(=O)[C@H](CC(C)C)NC(=O)CNC(C)=O)C(=O)N[C@@H](CCCN)C(=O)N[C@@H](CCCCNC(=N)N)C(N)=O	crystal violet staining	ATCC 25922	4 × MIC, 24 h	biofilm formation inhibition	≤ 61.9%
CC[C@H](C)[C@H](NC(=O)[C@H](CO)NC(=O)[C@H](CO)NC(=O)[C@H](Cc1ccccc1)NC(=O)CN)C(=O)N[C@@H](Cc1ccccc1)C(=O)N[C@@H](CCCNC(=N)N)C(=O)NCC(=O)N[C@H](C(=O)N[C@@H](C)C(=O)N[C@@H](CCCCN)C(=O)N[C@@H](Cc1ccccc1)C(=O)N[C@@H](C)C(=O)N[C@@H](CO)C(=O)N[C@@H](CCCCN)C(=O)NCC(=O)N[C@@H](CC(C)C)C(=O)NCC(=O)N[C@@H](CCCCN)C(N)=O)C(C)C	–	ATCC 8739	pretreated trypsin 1 mg/mL	MBC	> 128 µM
CC[C@H](C)[C@H](NC(=O)[C@H](CCCNC(=N)N)NC(=O)[C@@H](N)CCCNC(=N)N)C(=O)N[C@@H](CCCNC(=N)N)C(=O)N[C@@H](Cc1ccccc1)C(=O)N[C@@H](CCCNC(=N)N)C(=O)N1CCC[C@H]1C(=O)N1CCC[C@H]1C(=O)N[C@@H](Cc1ccc(O)cc1)C(=O)N[C@@H](CC(C)C)C(=O)N1CCC[C@H]1C(=O)N[C@@H](CCCNC(=N)N)C(=O)N1CCC[C@H]1C(=O)NCC(=O)N[C@@H](CCCNC(=N)N)C(=O)N[C@@H](CCCNC(=N)N)C(=O)N1CCC[C@H]1C(=O)N[C@@H](CCCNC(=N)N)C(=O)N[C@@H](Cc1ccccc1)C(=O)N1CCC[C@H]1C(=O)N1CCC[C@H]1C(=O)N1CCC[C@H]1C(=O)N[C@@H](Cc1ccccc1)C(=O)N1CCC[C@H]1C(=O)N[C@H](C(=O)N1CCC[C@H]1C(=O)N[C@@H](CCCNC(=N)N)C(=O)N[C@H](C(=O)N1CCC[C@H]1C(=O)N[C@@H](CCCNC(=N)N)C(=O)N[C@H](C(=O)N1CCC[C@H]1C(=O)O)[C@@H](C)CC)[C@@H](C)CC)[C@@H](C)CC	membrane permeabilization, propidium iodide flow cytometry	BW25113, Mueller-Hinton broth	8 µM, 15 min, 37 °C	PI-positive cells	~70%
CC(C)=CCCC1(C)CC=NO1 (stereo not shown)	–	K12	–	IC50	> 500 µM
CC(C)=CCNCCOC1C2CC3CC(C2)CC1C3 (stereo not shown)	growth	–	–	IC50	9 µg/mL
C[C@]1(COC(=O)Cc2ccc(O)c(O)c2)[C@H](C(=O)O)N2C(=O)/C(=C/c3ccccn3)[C@H]2S1(=O)=O	broth microdilution	MG1655 expressing CTX-M-2	16 µg/mL	MIC of ceftazidime	≤ 1 µg/mL
CCCC(=O)NCC(=O)N[C@@H](CC(C)C)C(=O)N[C@@H](CC(C)C)C(=O)N[C@@H](CCCCN)C(=O)N[C@@H](CCCNC(=N)N)C(=O)N[C@H](C(=O)N[C@@H](CCCCN)C(=O)N[C@H](C(=O)N[C@@H](CC(C)C)C(=O)N[C@@H](CC(C)C)C(=O)NCCCC[C@H](NC(=O)[C@H](CCCCNC(=O)[C@H](CC(C)C)NC(=O)[C@H](CC(C)C)NC(=O)[C@@H](NC(=O)[C@H](CCCCN)NC(=O)[C@@H](NC(=O)[C@H](CCCNC(=N)N)NC(=O)[C@H](CCCCN)NC(=O)[C@H](CC(C)C)NC(=O)[C@H](CC(C)C)NC(=O)CNC(=O)CCC)[C@@H](C)CC)[C@@H](C)O)NC(=O)[C@H](CC(C)C)NC(=O)[C@H](CC(C)C)NC(=O)[C@@H](NC(=O)[C@H](CCCCN)NC(=O)[C@@H](NC(=O)[C@H](CCCNC(=N)N)NC(=O)[C@H](CCCCN)NC(=O)[C@H](CC(C)C)NC(=O)[C@H](CC(C)C)NC(=O)CNC(=O)CCC)[C@@H](C)CC)[C@@H](C)O)C(N)=O)[C@@H](C)O)[C@@H](C)CC	checkerboard	ATCC 25922	with: rifampicin	FIC index	0.312
CC[C@H](C)[C@H](NC(=O)[C@H](CCCCN)NC(=O)[C@H](CCCCN)NC(=O)[C@H](CC(C)C)NC(=O)[C@H](CCCCN)NC(=O)[C@H](CCC(=O)O)NC(=O)[C@H](CCCCN)NC(=O)[C@@H](NC(=O)[C@H](CCCCN)NC(=O)[C@H](CC(N)=O)NC(=O)[C@H](CCCNC(=N)N)NC(=O)[C@H](Cc1ccccc1)NC(=O)[C@H](CCCCN)NC(=O)[C@H](CCCNC(=N)N)NC(=O)[C@H](CC(C)C)NC(=O)[C@H](CCCNC(=N)N)NC(=O)[C@H](CCCCN)NC(=O)[C@H](CCCNC(=N)N)NC(=O)[C@H](CC(C)C)NC(=O)[C@@H](N)CCCNC(=N)N)[C@@H](C)CC)C(=O)NCC(=O)N[C@@H](CCC(N)=O)C(=O)N[C@@H](CCCCN)C(=O)N[C@H](C(=O)N[C@@H](CCC(N)=O)C(=O)NCC(=O)N[C@@H](Cc1ccccc1)C(=O)N[C@H](C(=O)N1CCC[C@H]1C(=O)N[C@@H](CCCCN)C(=O)N[C@@H](CC(C)C)C(=O)N[C@@H](CCC(N)=O)C(=O)N1CCC[C@H]1C(=O)N[C@@H](CO)C(=O)N[C@@H](CCCCN)C(=O)N[C@@H](CCC(N)=O)C(=O)N[C@@H](CO)C(=O)O)C(C)C)[C@@H](C)CC	inhibition zone	ATCC 25922	–	lethal concentration	2.75 µM
CC[C@H](C)[C@H](NC(=O)[C@H](CCCCN)NC(=O)[C@H](CCCCN)NC(=O)[C@H](Cc1c[nH]c2ccccc12)NC(=O)[C@H](CC(N)=O)NC(=O)[C@@H](NC(=O)COCCOCCOCCOCCOCCOCCOC(=O)NCCCCCCNC(=O)NCCCCCCNC(=O)Nc1nc(=O)cc(C)[nH]1)C(C)C)C(=O)N[C@@H](CC(C)C)C(=O)NCC(=O)N[C@@H](CCCCN)C(=O)N[C@H](C(=O)N[C@H](C(=O)N[C@@H](CCCCN)C(=O)N[C@H](C(=O)N[C@H](C(=O)N[C@@H](CCCCN)C(N)=O)C(C)C)C(C)C)[C@@H](C)CC)[C@@H](C)CC	–	ATCC 8937, RPMI medium	24 h, 37 °C	LC99.9	7.5 µM
CC(C)C[C@H](NC(=O)[C@H](CCCNC(=N)N)NC(=O)[C@H](C)NC(=O)[C@H](CC(C)C)NC(=O)[C@H](CCCNC(=N)N)NC(=O)[C@H](C)NC(=O)[C@H](CCCCN)NC(=O)[C@H](CC(C)C)NC(=O)[C@H](CCCNC(=N)N)NC(=O)[C@H](Cc1ccc(O)cc1)NC(=O)[C@H](CC(C)C)NC(=O)[C@H](CCCNC(=N)N)NC(=O)[C@H](C)NC(=O)[C@H](CCCNC(=N)N)NC(=O)[C@H](CC(C)C)NC(=O)[C@H](CCCCN)NC(=O)[C@H](C)NC(=O)[C@H](CC(C)C)NC(=O)[C@H](CCCNC(=N)N)NC(=O)[C@H](C)NC(=O)[C@@H](N)CCCCN)C(N)=O	LIVE/DEAD staining	10 mM phosphate buffer	MIC, 30 min, pH 7.4, 37 °C	dead cells	≤ 80%
CC[C@H](C)[C@H](NC(=O)[C@H](CCCCN)NC(=O)[C@H](CCCCN)NC(=O)[C@H](CC(C)C)NC(=O)[C@H](CCCCN)NC(=O)[C@H](CCC(=O)O)NC(=O)[C@H](CCCCN)NC(=O)[C@@H](NC(=O)[C@H](CCCCN)NC(=O)[C@H](CC(N)=O)NC(=O)[C@H](CCCNC(=N)N)NC(=O)[C@H](Cc1ccccc1)NC(=O)[C@H](CCCCN)NC(=O)[C@H](CCCNC(=N)N)NC(=O)[C@H](CC(C)C)NC(=O)[C@H](CCCNC(=N)N)NC(=O)[C@H](CCCCN)NC(=O)[C@H](CCCNC(=N)N)NC(=O)[C@@H](N)CC(C)C)[C@@H](C)CC)C(=O)NCC(=O)N[C@@H](CCC(N)=O)C(=O)N[C@@H](CCCCN)C(=O)N[C@H](C(=O)N[C@@H](CCC(N)=O)C(=O)NCC(=O)N[C@@H](Cc1ccccc1)C(=O)N[C@H](C(=O)N1CCC[C@H]1C(=O)N[C@@H](CCCCN)C(=O)N[C@@H](CC(C)C)C(=O)O)C(C)C)[C@@H](C)CC	inhibition zone	DH5α	–	lethal concentration	1.46 µM
O=C(CCCOc1ccc(Cl)cc1Cl)N/N=C/c1ccc[nH]1	–	TolC	50 µM	growth inhibition	67%
CC[C@H](C)[C@H](NC(=O)[C@H](CO)NC(=O)[C@H](CO)NC(=O)[C@H](Cc1ccccc1)NC(=O)CN)C(=O)N[C@@H](Cc1ccccc1)C(=O)N[C@@H](CCCNC(=N)N)C(=O)NCC(=O)N[C@H](C(=O)N[C@@H](C)C(=O)N[C@@H](CCCCN)C(=O)N[C@@H](Cc1ccccc1)C(=O)N[C@@H](C)C(=O)N[C@@H](CO)C(=O)N[C@@H](CCCCN)C(=O)NCC(=O)N[C@@H](CC(C)C)C(=O)NCC(=O)N[C@@H](CCCCN)C(=O)N[C@@H](CC(=O)O)C(=O)N[C@@H](CC(C)C)C(=O)N[C@@H](C)C(=O)N[C@@H](CCCNC(=N)N)C(N)=O)C(C)C	–	ATCC 8739	with: 2.5 mM CaCl2	MBC	> 128 µM
CC[C@H](C)[C@H](NC(=O)[C@H](CCCNC(=N)N)NC(=O)[C@H](CCCCN)NC(=O)[C@H](CC(C)C)NC(=O)[C@H](CC(C)C)NC(=O)CN)C(=O)N[C@@H](CCCCN)C(=O)N[C@H](C(=O)N[C@@H](CC(C)C)C(=O)N[C@@H](CC(C)C)C(=O)NCCCC[C@H](NC(=O)[C@H](CC(C)C)NC(=O)[C@H](CC(C)C)NC(=O)[C@@H](NC(=O)[C@H](CCCCN)NC(=O)[C@@H](NC(=O)[C@H](CCCNC(=N)N)NC(=O)[C@H](CCCCN)NC(=O)[C@H](CC(C)C)NC(=O)[C@H](CC(C)C)NC(=O)CN)[C@@H](C)CC)[C@@H](C)O)C(N)=O)[C@@H](C)O	checkerboard	ATCC 25922	with: rifampicin	FIC index	0.25
CCCCCCCCCCCCCCCCCC(=O)N[C@@H](CCCCN)C(=O)N[C@@H](CCCCN)C(=O)N(CCCCN)CC(=O)N[C@@H](CCCCN)C(=O)N[C@@H](CCCCN)C(N)=O	–	K12	–	MBC	32 µg/mL

Excerpt of the above:
SMILES	assay	test system	conditions	quantity	value
CC[C@H](C)[C@H](NC(=O)[C@H](CCCNC(=N)N)NC(=O)[C@@H](N)CCCNC(=N)N)C(=O)N[C@@H](CCCNC(=N)N)C(=O)N[C@@H](Cc1ccccc1)C(=O)N[C@@H](CCCNC(=N)N)C(=O)N1CCC[C@H]1C(=O)N1CCC[C@H]1C(=O)N[C@@H](Cc1ccc(O)cc1)C(=O)N[C@@H](CC(C)C)C(=O)N1CCC[C@H]1C(=O)N[C@@H](CCCNC(=N)N)C(=O)N1CCC[C@H]1C(=O)NCC(=O)N[C@@H](CCCNC(=N)N)C(=O)N[C@@H](CCCNC(=N)N)C(=O)N1CCC[C@H]1C(=O)N[C@@H](CCCNC(=N)N)C(=O)N[C@@H](Cc1ccccc1)C(=O)N1CCC[C@H]1C(=O)N1CCC[C@H]1C(=O)N1CCC[C@H]1C(=O)N[C@@H](Cc1ccccc1)C(=O)N1CCC[C@H]1C(=O)N[C@H](C(=O)N1CCC[C@H]1C(=O)N[C@@H](CCCNC(=N)N)C(=O)N[C@H](C(=O)N1CCC[C@H]1C(=O)N[C@@H](CCCNC(=N)N)C(=O)N[C@H](C(=O)N1CCC[C@H]1C(=O)O)[C@@H](C)CC)[C@@H](C)CC)[C@@H](C)CC	membrane permeabilization, propidium iodide flow cytometry	BW25113, Mueller-Hinton broth	8 µM, 15 min, 37 °C	PI-positive cells	~70%
CC(C)=CCCC1(C)CC=NO1 (stereo not shown)	–	K12	–	IC50	> 500 µM
